Assay results gathered from unrelated publications.
Each numbered part is a random draw from the data of one study; scales do not carry over between parts.

Series 1 — method: competition protein-binding microarray; form: double-stranded DNA, one strand shown; medium: in vitro; tested at: 2 µM; added: Pho4 competitor, 0.05 µM; direction: higher = stronger binding
Target: Centromere-binding protein 1, full length, His-tagged (CBF1, Saccharomyces cerevisiae, UniProt P17106, residues 1-351)
UniProt P17106, sequence (whole entry, looked up): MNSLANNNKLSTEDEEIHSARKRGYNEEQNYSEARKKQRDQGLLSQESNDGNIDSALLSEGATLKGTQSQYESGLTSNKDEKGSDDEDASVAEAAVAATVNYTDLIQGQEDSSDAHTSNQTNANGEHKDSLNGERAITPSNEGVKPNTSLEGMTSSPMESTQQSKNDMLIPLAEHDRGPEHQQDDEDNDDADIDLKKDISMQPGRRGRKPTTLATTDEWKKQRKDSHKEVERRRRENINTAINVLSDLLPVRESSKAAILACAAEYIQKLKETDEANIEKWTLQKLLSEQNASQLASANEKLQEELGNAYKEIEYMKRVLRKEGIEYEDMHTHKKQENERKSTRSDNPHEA
Notes: whole 60-bp probe, lowest competitor level
`GAGTGTTGTTGGGCGCACATGTCGATTTCATAATAGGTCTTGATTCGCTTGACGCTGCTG` gave a fluorescence intensity of 143 a.u.
`AGGGCTGAGGCAGCGCACGTGTGAGCGCCGCTGAGGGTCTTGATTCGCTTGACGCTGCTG` has a fluorescence intensity of 516 a.u.
For `GCGCTACCGTTGCGCCACGAGGCCTGTCCAACAGCGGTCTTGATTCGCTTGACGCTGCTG`, the fluorescence intensity was 61.9 a.u.
`GGATGGGACACCAACAACGTGCAAAACACCGAAGTGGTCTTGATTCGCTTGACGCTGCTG` gave a fluorescence intensity of 128 a.u.
`CTTTCCCGATCTTTACACGTGTTTTTAGCACATTTGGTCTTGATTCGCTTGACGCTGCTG` has a fluorescence intensity of 1250 a.u.
The fluorescence intensity of `CCCGTTCGCTAACCAAGCGTGGGACAAGAGTTTAGGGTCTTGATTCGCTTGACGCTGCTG` is reported as 68.3 a.u.
`TAAAACCTCGTCTGAATCGTGATGGCCCTCAGAATCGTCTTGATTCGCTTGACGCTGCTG` has a fluorescence intensity of 58.5 a.u.
For `CCAGCGCATCTACTGAACCTGATCCAAAACTCCAAAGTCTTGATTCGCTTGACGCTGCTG`, the fluorescence intensity was 56.5 a.u.
`TAATTTCGAAGTACCTATATTTTTAACCAATCTCGGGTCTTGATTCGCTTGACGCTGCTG` gave a fluorescence intensity of 96.2 a.u.
For `TGAACAGAAACAAATCACATGTTTCCTTGGCAGAATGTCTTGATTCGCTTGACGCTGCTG`, the fluorescence intensity was 867 a.u.
`GTCTTGTCTCATTGGTTAGTGGGTGTCCCCACTTCAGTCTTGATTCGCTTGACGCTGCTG` has a fluorescence intensity of 84 a.u.
`TCAAAGAGTTGAGCGAACGTGACTCCTGGGCTGGCCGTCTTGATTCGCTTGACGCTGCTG` has a fluorescence intensity of 239 a.u.
`TATCCAAGTGCCCATCACGTTTTTTTATTTAATGTAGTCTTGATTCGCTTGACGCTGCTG` has a fluorescence intensity of 778 a.u.
For `CGGGGTTAAGTTTGTCGAGTGGGTGGCTTGCAGCAGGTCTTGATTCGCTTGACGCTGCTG`, the fluorescence intensity was 72.5 a.u.
With `TATCTAGGATGCTGCACCGTGGCAACATTCCCCTCGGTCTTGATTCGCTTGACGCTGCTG` the fluorescence intensity was 65.4 a.u.
`AGTTCCGCTGTGCTGCATGTGTGTGTATGCCAATATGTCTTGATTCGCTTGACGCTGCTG` gave a fluorescence intensity of 111 a.u.

Series 2 — method: protein binding microarray; form: double-stranded DNA, one strand shown; medium: in vitro; tested at: not given; reference: not given; direction: higher = stronger binding
Target: Histone acetyltransferase KAT6A, winged helix 1, GST fusion (KAT6A, Homo sapiens, UniProt Q92794, residues 1-85)
Notes: 8-mer, flanks averaged, mean of 2 arrays, mostly near background
Residues (chain): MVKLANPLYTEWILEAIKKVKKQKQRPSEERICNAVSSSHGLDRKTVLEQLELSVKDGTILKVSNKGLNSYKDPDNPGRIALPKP
The E-score of `GAACCCTA` is reported as -0.0897.
`CTCACGAC` has an E-score of 0.0175.
The E-score of `AGCCTCCC` is reported as 0.0155.
`AATTACCG` has an E-score of 0.219.
`ACAACCTG` gave an E-score of -0.339.
For `AGGGTCTC`, the E-score was -0.0736.
For `CTGACCCA`, the E-score was -0.22.
With `GCTTCCAA` the E-score was 0.02.
`AAAAACCA` has an E-score of -0.0663.
`CTGTCACC` gave an E-score of -0.157.
`CGAGTGTC` has an E-score of -0.0217.
`CTACAGCC` gave an E-score of -0.0175.
`GCCAAAGA` has an E-score of -0.139.
`GAGTCATA` has an E-score of -0.0765.
The E-score of `CCCAGGCC` is reported as -0.0912.
`TTCCAGAA` gave an E-score of -0.0823.

Series 3 — method: RNA Bind-n-Seq; form: RNA; medium: in vitro; tested at: not given; reference: input RNA pool; direction: higher = stronger binding
Target: RING finger protein unkempt homolog, zinc fingers 1-6, GST-SBP tag (UNK, Homo sapiens, UniProt Q9C0B0, residues 30-357)
Notes: RNA with constant flanks, human-mouse chimeric sites, ends assumed
Target sequence (chain): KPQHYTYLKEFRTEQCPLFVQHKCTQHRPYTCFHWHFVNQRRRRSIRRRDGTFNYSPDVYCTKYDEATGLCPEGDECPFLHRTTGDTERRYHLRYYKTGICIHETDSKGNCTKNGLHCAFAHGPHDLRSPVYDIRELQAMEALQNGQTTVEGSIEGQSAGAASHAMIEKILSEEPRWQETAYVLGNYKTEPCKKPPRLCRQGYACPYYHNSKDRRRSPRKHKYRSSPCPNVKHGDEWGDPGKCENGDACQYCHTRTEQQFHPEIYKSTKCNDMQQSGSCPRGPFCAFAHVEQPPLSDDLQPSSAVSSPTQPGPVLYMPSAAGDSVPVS
With `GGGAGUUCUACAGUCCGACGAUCAGAGAAAUGAGAAAGAAUCUUACACAAGAAGAGAUGCAAAGAAUGUCUACUAGAGUCCUUUUGGCGACUCUUUCCAUUCCUAUUACUCCUGAGCGUACUGAUAUUGCUCGACUUCUGGAUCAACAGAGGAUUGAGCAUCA` the bound/input enrichment was 0.595 ratio.
`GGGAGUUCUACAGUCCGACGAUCUAAGUUAUUUUGUACAGCUUUGUAAAUUCUUAACAUUUUUAUAUUGCCAUGUUUAUUUUGUUUGGGUAAUUUGGUUCAUUAAGUACAUAGCUAAGGUACAUCUUUCAUUUUUCAGUAAUUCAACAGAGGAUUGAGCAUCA` has a bound/input enrichment of 1.14 ratio.
`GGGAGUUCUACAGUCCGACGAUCGUAGCUGGGACUACAGAAGAAUGCUGAAUUUCAGUCACUUGCUGAUGACUUCUGAUGACCUAGCAAAUGUUGGCAUUGUUGACUGCUGAGAAGAUACUUCUGAGGACCCACGUCUAAGGUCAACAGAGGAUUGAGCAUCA` has a bound/input enrichment of 0.0735 ratio.
The bound/input enrichment of `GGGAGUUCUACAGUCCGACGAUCCCUGCUCAGAUCACCAUGAAAGUAAUCCAAGGCCUAUAUAGUGGGGUCACCACAGUGGAACUAGAUACCCUGGCUGCUGAAACAGCUGCGACCUUGACCACGAAGCACCCUGACUAUGCCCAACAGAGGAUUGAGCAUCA` is reported as 0.198 ratio.
For `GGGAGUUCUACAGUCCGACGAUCUGACAAGGGCACUGCAGAGCCAUGCCUUUCCUUGACAUACAGAAAAAGCUGGGCAUCAACAUAGAUCGAUGGUUGACGUUCCUAAGCGCAGAACAGCCCUAUAAGAACGCCGCUCGGUGCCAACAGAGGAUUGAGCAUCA`, the bound/input enrichment was 0.0847 ratio.
The bound/input enrichment of `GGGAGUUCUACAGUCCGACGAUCUUCAAAGAAAAGGGCAGCUGUGUCAUUUCAUAAGUAACUCUGGGGGAGGGAAAUUCUAACUAGUUUGUUAAUUUUCCCCCAAAUGAAGCCAAAGUGUGUGUUGAAGAAGGAAGAAUGAAUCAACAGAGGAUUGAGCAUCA` is reported as 0.626 ratio.
The bound/input enrichment of `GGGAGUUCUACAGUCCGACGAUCACCUCCCCCUCCCGCCUGCUUUUUGAACCGCUUUUUGGAAAGUUUUUGGCGUUUCUUUUCCUUCCCCAUACAAAGUGGUUUUUACCACCCCCGCAAGGGUCUAUCGAAGGGCUUGACGGACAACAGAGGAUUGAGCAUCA` is reported as 0.49 ratio.
`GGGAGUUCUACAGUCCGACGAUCCUUUUUAAGAAGAUAUGUGAUGGGAUCUUCUAUACCCCUCAGUACUUAAACCCUUCAGUGAUUAGCCUUUUGAAACAUAUGCUGCAGGUGGAUCCCAUGAAGAGGGCCGCAAUAAAAGAUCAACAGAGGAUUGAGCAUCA` has a bound/input enrichment of 0.483 ratio.

Series 4 — method: protein-binding microarray; form: hairpin DNA; medium: in vitro; tested at: not given; reference: not given; direction: higher = stronger binding
Target: Cyclic AMP-dependent transcription factor ATF-1, full length (ATF1, Homo sapiens, UniProt P18846, residues 1-271)
Notes: whole hairpin DNA, median over replicate spots
Construct (chain): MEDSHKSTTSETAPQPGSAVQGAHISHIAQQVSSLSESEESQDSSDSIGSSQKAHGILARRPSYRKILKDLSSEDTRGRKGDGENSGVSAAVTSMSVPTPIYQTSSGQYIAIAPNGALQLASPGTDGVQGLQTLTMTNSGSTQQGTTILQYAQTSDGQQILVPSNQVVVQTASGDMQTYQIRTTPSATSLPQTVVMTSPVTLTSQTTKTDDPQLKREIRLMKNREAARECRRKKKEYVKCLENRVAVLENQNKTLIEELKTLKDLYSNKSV
`GAGGCCGGCGGACGTCAGCCTCCTGGCTGACGTCCGCCGGCCTCACACTC` gave a median fluorescence of 5410 a.u.
With `GAGGCCAGCTGACGTCAGCCTCCTGGCTGACGTCAGCTGGCCTCACACTC` the median fluorescence was 10100 a.u.
The median fluorescence of `GAGGCCGGCTGACCGCAGCCTCCTGGCTGCGGTCAGCCGGCCTCACACTC (5mC at 30)` is reported as 3360 a.u.
For `GAGGCCGGCCGACGTCAGCCTCCTGGCTGACGTCGGCCGGCCTCACACTC (5mC at 10)`, the median fluorescence was 7370 a.u.
The median fluorescence of `GAGGCCGGATGAAGTCAGCCTCCTGGCTGACTTCATCCGGCCTCACACTC` is reported as 3280 a.u.
The median fluorescence of `GAGGCCGACGCCGTCGTGCCTCCTGGCACGACGGCGTCGGCCTCACACTC (5mC at 9 15 29 35)` is reported as 3470 a.u.
For `GAGGCCGGCTGACCGCAGCCTCCTGGCTGCGGTCAGCCGGCCTCACACTC (5mC at 14 30)`, the median fluorescence was 3410 a.u.
With `GAGGCCGGATGAGGTCAGCCTCCTGGCTGACCTCATCCGGCCTCACACTC (5mC at 32)` the median fluorescence was 3250 a.u.
`GAGGCCGGATGACATCAGCCTCCTGGCTGATGTCATCCGGCCTCACACTC` has a median fluorescence of 4310 a.u.
`GAGGCCGGATGCCGTCAGCCTCCTGGCTGACGGCATCCGGCCTCACACTC (5mC at 12)` has a median fluorescence of 3740 a.u.
`GAGGCCGGATGACGCCAGCCTCCTGGCTGGCGTCATCCGGCCTCACACTC` gave a median fluorescence of 5400 a.u.
`GAGGCCGGATAACGTCAGCCTCCTGGCTGACGTTATCCGGCCTCACACTC` has a median fluorescence of 4640 a.u.
`GAGGCCGGATGACGTCAGCCTCCTGGCTGACGTCATCCGGCCTCACACTC (5mC at 16)` gave a median fluorescence of 9820 a.u.
For `GAGGCCGGATGACCGCAGCCTCCTGGCTGCGGTCATCCGGCCTCACACTC (5mC at 14 30)`, the median fluorescence was 3500 a.u.
For `GAGGCCGACGACGTCTTGCCTCCTGGCAAGACGTCGTCGGCCTCACACTC (5mC at 9 15 35)`, the median fluorescence was 3500 a.u.
`GAGGCCGGACGACGTCAGCCTCCTGGCTGACGTCGTCCGGCCTCACACTC (5mC at 10 34)` gave a median fluorescence of 6300 a.u.
For `GAGGCCGGATGACGTCAGCCTCCTGGCTGACGTCATCCGGCCTCACACTC (5mC at 31)`, the median fluorescence was 5950 a.u.
For `GAGGCCGAGGACGTCGTGCCTCCTGGCACGACGTCCTCGGCCTCACACTC (5mC at 15 29 35 36)`, the median fluorescence was 3400 a.u.
For `GAGGCCGAATGACGTCAGCCTCCTGGCTGACGTCATTCGGCCTCACACTC`, the median fluorescence was 13100 a.u.
For `GAGGCCGACGACGACGTGCCTCCTGGCACGTCGTCGTCGGCCTCACACTC (5mC at 9 15 29 35)`, the median fluorescence was 3810 a.u.
`GAGGCCGACGACGTCGGGCCTCCTGGCCCGACGTCGTCGGCCTCACACTC (5mC at 9 15 28 29 35)` has a median fluorescence of 3820 a.u.
`GAGGCCGGATGACGTGAGCCTCCTGGCTCACGTCATCCGGCCTCACACTC (5mC at 29)` gave a median fluorescence of 8870 a.u.
`GAGGCCGGCCGACGTCAGCCTCCTGGCTGACGTCGGCCGGCCTCACACTC (5mC at 10 34)` gave a median fluorescence of 5430 a.u.
